Experimental data of several laboratories.
Numbered parts are unrelated; each lists some results of a single study.

Series 1
Target: Histone acetyltransferase KAT6A, winged helix 1, GST fusion (KAT6A, Homo sapiens, UniProt Q92794, residues 1-85)
Method: protein binding microarray
Molecule type: double-stranded DNA, one strand shown
Medium: in vitro
Tested at: not given
Setting: 8-mer, flanks averaged, mean of 2 arrays, mostly near background
Reference: not given
Reading: higher = stronger binding
Endpoint: E-score
Target sequence (chain): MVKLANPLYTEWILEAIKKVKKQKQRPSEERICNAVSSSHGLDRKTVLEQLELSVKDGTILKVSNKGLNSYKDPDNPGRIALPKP
TCCGTACA: 0.216
AAGTGGAG: -0.239
GATAGGAA: -0.161
ATATTGAT: -0.219
GGCAGCAA: -0.00536
ATGTGAGG: -0.0821
GTTCGAGA: -0.00188

Series 2
Target: Interferon regulatory factor 5, full length, phosphomimetic (IRF5, Homo sapiens, UniProt Q13568-2, residues 1-514, S451D/S453D/S456D/S462D)
Method: protein-binding microarray
Molecule type: double-stranded DNA, one strand shown
Medium: in vitro
Tested at: 940 nM top
Setting: 60-bp whole probe
Added: salmon DNA 0.4 mg/ml
Reference: random background probes
Reading: higher = stronger binding
Endpoint: fitted relative affinity
Shared flanks, not repeated: GCCTAGCAC … GTCTTGATTCGCTTGACGCTGCTG
TTAGGTTTCGGAACTGGGTTAGTGCTA: 7.96 z-score
GACGGGCTGCTTATCCTGACGTGCTAG: -0.44 z-score
GAGTTTCCATTTTCTGAATGCGTGCTA: 3.11 z-score
TTAGGTTTCGGGACTCGGTTAGTGCTA: 7.91 z-score
GCCTCTAGGTTTTCTGGAGACGTGCTA: -0.337 z-score
TCACTCTTCTGCTTCCTACTGTGCTAG: 1.74 z-score
GACGGAATGGGGTTTCGGGACGTGCTA: 1.83 z-score
GAATGTTTTTCATTGTTTTTGTGCTAG: 0.933 z-score

Series 3
Target: Protein max, full length (MAX, Homo sapiens, UniProt P61244-2, residues 1-151)
Method: protein-binding microarray
Molecule type: double-stranded DNA, one strand shown
Medium: in vitro
Tested at: not given
Setting: k-mer, scored over probes, only values ≥0.25
Reading: higher = stronger binding
Endpoint: E-score
GTGAACAC: 0.254
CCCCACGC: 0.402
CATGTGTC: 0.451
CATGTTGC: 0.352
TCGTGGAA: 0.304
CACGTTTC: 0.419
ATAACACG: 0.379
ACGCCGGA: 0.278
ACGTGGGG: 0.407
CGTGCACC: 0.388
GCCTCCCC: 0.291

Other studies, line by line
PhoQ, residues 284 288 289 292 302 303 TSTLRA — fold induction (PhoP, residues 12 14 15 18 19 NHFRA (Escherichia coli, UniProt P23836); Sort-seq, item: YFP reporter; E. coli; PhoQ-PhoP variant library, added: 10 µM Mg2+; reference: high Mg2+ state, higher = stronger signaling): 4.39

Repeated from above (series 3):
ACGTGGGG: 0.407
CGTGCACC: 0.388
CATGTTGC: 0.352
